Experimental data pooled from the literature.
Compare with care: the assays were run in different laboratories. Values joined by “and” are separate records of one study, mostly repeats; a detail may differ.
Chain of UniProt P25021 (whole entry, looked up): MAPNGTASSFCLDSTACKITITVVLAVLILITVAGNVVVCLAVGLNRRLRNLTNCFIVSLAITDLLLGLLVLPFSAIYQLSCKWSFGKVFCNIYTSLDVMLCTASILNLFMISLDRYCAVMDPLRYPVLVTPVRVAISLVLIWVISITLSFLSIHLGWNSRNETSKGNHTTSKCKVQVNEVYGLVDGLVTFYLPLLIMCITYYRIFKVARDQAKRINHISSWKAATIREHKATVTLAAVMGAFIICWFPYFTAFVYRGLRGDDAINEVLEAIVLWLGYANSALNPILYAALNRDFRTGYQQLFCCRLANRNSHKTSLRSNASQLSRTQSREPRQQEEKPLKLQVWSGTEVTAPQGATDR
Chain of UniProt Q9Y6R4 (whole entry, looked up): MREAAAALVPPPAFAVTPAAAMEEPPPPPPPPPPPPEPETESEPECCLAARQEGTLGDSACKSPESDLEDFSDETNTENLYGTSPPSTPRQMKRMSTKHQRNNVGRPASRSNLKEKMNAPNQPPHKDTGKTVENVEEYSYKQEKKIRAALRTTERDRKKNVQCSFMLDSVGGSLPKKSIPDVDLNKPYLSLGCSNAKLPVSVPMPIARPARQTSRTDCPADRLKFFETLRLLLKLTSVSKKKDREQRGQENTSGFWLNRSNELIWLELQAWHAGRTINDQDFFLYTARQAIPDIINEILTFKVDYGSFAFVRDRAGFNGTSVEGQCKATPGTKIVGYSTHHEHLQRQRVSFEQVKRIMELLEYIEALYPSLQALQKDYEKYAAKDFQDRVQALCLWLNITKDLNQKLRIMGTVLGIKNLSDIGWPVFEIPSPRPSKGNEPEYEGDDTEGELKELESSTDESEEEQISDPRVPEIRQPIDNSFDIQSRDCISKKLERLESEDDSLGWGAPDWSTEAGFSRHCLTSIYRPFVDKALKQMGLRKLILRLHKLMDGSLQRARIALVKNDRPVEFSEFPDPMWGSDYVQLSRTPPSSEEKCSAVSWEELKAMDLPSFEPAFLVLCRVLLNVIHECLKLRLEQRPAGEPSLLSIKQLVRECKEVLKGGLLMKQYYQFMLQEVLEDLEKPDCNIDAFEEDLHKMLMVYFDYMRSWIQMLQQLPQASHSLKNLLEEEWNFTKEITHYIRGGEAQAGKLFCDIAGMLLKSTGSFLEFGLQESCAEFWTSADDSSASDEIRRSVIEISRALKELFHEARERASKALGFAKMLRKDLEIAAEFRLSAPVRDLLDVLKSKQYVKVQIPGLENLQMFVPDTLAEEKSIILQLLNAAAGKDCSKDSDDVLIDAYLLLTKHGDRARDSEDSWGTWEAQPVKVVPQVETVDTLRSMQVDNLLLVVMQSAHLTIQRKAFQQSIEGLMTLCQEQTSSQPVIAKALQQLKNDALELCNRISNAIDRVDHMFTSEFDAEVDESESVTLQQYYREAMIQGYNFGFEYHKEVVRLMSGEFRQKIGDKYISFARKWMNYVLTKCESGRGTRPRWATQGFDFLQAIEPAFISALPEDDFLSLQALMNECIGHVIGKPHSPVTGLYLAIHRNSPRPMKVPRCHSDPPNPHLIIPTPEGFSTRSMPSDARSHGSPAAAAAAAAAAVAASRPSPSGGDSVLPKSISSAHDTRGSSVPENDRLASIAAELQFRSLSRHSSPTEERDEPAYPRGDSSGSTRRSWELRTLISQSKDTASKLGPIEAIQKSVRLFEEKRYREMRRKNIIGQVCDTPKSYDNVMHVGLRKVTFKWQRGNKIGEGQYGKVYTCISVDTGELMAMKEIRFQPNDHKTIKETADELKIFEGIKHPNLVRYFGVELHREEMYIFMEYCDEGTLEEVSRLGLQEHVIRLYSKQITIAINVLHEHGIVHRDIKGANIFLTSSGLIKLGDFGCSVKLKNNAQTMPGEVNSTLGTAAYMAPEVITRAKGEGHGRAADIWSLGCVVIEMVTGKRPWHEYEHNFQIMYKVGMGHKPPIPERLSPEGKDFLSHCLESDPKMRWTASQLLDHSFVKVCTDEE
Chain of UniProt Q13873 (whole entry, looked up): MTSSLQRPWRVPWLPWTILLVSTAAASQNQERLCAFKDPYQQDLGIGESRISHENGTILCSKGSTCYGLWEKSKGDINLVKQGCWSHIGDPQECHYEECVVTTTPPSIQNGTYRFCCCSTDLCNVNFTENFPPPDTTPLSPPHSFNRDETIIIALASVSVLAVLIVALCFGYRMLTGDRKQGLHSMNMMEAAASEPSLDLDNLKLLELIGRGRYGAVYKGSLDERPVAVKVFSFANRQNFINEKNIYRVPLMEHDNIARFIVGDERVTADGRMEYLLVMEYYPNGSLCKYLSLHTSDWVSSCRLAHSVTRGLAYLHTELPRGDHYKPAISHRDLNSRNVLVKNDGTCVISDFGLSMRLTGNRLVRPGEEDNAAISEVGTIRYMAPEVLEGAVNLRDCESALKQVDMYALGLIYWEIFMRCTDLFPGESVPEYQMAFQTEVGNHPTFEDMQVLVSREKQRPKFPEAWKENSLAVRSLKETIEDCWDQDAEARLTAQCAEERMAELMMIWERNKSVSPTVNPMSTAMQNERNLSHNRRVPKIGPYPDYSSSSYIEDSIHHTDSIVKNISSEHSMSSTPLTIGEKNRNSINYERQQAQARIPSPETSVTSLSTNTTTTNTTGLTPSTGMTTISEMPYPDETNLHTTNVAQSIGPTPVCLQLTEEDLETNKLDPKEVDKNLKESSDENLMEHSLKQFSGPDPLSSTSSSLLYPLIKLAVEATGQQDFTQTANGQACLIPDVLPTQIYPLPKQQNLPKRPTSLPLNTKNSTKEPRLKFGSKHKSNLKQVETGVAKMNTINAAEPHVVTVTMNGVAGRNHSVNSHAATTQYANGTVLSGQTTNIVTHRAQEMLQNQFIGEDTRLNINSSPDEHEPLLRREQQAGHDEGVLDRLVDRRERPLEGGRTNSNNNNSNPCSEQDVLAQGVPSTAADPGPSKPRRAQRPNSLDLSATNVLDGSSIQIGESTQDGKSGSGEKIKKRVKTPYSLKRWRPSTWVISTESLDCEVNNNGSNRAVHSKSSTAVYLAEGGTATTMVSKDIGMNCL
Chain of UniProt Q8IU85 (whole entry, looked up): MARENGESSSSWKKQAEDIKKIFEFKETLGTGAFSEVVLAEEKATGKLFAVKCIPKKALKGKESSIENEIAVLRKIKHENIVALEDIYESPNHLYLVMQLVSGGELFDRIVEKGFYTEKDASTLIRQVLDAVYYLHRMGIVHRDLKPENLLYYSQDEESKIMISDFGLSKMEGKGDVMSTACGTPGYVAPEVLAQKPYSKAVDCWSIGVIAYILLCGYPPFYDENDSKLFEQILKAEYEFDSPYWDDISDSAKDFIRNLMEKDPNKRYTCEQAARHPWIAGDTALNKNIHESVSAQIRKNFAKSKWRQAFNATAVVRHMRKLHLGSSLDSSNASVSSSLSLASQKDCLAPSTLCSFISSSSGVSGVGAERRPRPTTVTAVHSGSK
Chain of UniProt Q9Y5N1 (whole entry, looked up): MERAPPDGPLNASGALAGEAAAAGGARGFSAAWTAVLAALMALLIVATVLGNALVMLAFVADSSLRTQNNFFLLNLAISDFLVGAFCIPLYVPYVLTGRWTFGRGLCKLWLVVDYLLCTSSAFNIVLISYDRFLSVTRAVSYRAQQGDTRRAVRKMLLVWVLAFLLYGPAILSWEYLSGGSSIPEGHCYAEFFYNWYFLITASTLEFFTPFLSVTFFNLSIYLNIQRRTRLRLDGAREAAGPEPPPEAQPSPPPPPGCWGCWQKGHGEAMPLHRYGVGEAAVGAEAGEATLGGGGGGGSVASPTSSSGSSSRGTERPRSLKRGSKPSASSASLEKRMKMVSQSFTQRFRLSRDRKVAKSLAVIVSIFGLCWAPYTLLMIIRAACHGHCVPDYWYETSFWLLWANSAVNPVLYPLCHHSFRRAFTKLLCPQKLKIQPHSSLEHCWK
Chain of UniProt P21554 (whole entry, unmodified, looked up): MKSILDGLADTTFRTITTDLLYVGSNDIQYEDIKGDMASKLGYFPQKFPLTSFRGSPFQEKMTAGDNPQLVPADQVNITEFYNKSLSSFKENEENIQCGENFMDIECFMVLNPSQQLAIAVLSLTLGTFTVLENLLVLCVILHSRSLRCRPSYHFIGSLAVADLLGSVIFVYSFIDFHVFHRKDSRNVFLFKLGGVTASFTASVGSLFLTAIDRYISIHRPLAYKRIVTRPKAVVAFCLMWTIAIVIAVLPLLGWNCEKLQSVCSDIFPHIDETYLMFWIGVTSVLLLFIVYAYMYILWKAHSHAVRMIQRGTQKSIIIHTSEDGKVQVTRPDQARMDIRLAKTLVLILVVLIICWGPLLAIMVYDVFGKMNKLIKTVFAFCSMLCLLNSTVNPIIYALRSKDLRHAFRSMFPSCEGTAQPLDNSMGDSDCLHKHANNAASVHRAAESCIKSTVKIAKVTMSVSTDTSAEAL
Chain of UniProt P36507 (whole entry, looked up): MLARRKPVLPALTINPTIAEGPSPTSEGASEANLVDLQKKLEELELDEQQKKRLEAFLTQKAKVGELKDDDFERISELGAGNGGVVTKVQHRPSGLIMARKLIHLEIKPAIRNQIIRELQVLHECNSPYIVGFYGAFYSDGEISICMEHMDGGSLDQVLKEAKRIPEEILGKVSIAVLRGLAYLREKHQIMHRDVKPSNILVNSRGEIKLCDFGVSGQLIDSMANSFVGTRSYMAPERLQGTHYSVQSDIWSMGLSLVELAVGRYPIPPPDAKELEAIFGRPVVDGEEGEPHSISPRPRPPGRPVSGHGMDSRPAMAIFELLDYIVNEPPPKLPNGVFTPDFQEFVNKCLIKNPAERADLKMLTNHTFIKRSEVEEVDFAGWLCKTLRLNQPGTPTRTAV

SMILES | tested on | assay | test system | setting | scale | measurement | value
CCCC1COC(Cn2cncn2)(c2ccc(Cl)cc2Cl)O1 (stereo not shown) | Trypanosoma cruzi | reporter mRNA translation, inhibitor, refers to: Renilla luciferase mRNA | cell-free extract | concentration not given, test 1 | baseline: positive over negative control | translation activity | 87.8% and 93.5%
Cc1sc2c(c1C)C(c1ccc(Cl)cc1)=NC(CC(=O)OC(C)(C)C)c1nnc(C)n1-2 (stereo not shown) | Histamine H2 receptor (HRH2, Homo sapiens, UniProt P25021) | ligand displacement, radioligand |  | 1 µM |  | remaining binding | 127%
CS(C)(=O)=Nc1ccc(-c2ccc(-c3nc4cc(O[C@@H]5CO[C@H]6[C@@H]5OC[C@H]6O)[nH]c4cc3F)cc2)cc1 | Cyclin-dependent kinase 2, with cyclin E (CDK2, Homo sapiens, UniProt P24941) | enzyme activity, inhibitor |  | 10 µM |  | inhibition | -10%
CCOc1ccc(CNCCc2ccc3c(c2)OCO3)cc1 | Trypanosoma cruzi | reporter mRNA translation, inhibitor, refers to: Renilla luciferase mRNA | cell-free extract | concentration not given, test 3 | baseline: positive over negative control | translation activity | 112%
Cc1ccc2c(C(C[N+](=O)[O-])c3cccs3)c(-c3ccccc3)[nH]c2c1 (stereo not shown) | Cannabinoid receptor 1 (CNR1, Homo sapiens, UniProt P21554, L165A) | β-arrestin recruitment, agonist, luciferase |  |  |  | Emax | 64.5%
CCN(Cc1ccc2nc(C)[nH]c(=O)c2c1)c1ccc(C(=O)NC(C(=O)O)C(C)C)cc1 (stereo not shown) | Mycobacterium tuberculosis | bacterial growth, inhibitor | H37Rv pptT conditional knockdown | with: anhydrotetracycline added |  | MIC50 | > 100 µM
CN(C)[C@H]1C[C@@]23CC[C@@]4(O2)C(=CC[C@]2(C)[C@@H](c5ccc6ccncc6c5)CC[C@H]24)C=C3[C@@H](O)[C@@H]1O | Dual specificity mitogen-activated protein kinase kinase 2 (MAP2K2, Homo sapiens, UniProt P36507) | ATP probe labelling, inhibitor, KiNativ profiling |  | 1 µM |  | inhibition | 0.1%
Nc1ccc(/C=C/C(=O)N2CCc3c(oc4c(-c5ccc(F)cc5)cc(-c5ccc(C(=O)N6CCC(F)(F)CC6)cn5)cc34)C2)cn1 | Bone morphogenetic protein receptor type-2 (BMPR2, Homo sapiens, UniProt Q13873) | binding, competition with immobilised ligand |  | 1 µM |  | remaining binding | 80%
CC(C)CC(O)(CC(C)C)c1cn(C(=O)N2CCCC2)nn1 | Phospholipase DDHD1 (Ddhd1, Mus musculus, UniProt Q80YA3) | probe labelling, inhibitor, refers to: Ddhd1 | mouse, brain | i.p., 0.8 mg/kg, 4 h, protein level | baseline: treated over vehicle mice, lower = stronger inhibition | activity ratio-of-ratios | 1.27
CC(C)[C@H]1NC(=O)C[C@H]2/C=C/CCSSC[C@@H](NC1=O)C(=O)N[C@H](Cc1cccc3ccccc13)C(=O)NCC(=O)O2 | Mitogen-activated protein kinase kinase kinase 4 (MAP3K4, Homo sapiens, UniProt Q9Y6R4) |  |  | 10 µM |  | inhibition | -1.2%
N[C@H](C(=O)N1CCCC1)C1CCN(c2nccc3c(-c4ncc(Cl)cc4Cl)cccc23)CC1 | Histamine H3 receptor (HRH3, Homo sapiens, UniProt Q9Y5N1) | functional response, agonist |  | 10 µM |  | response | 33%
O=C1NC(=O)c2c1c1cc(F)c[n+]3c1c1c2c2cc(O)ccc2[n]1[Ru-4]312([N]=C=S)[S+]3CC[S+]1CC[S+]2CC3 (stereo not shown) | Calcium/calmodulin-dependent protein kinase type 1D (CAMK1D, Homo sapiens, UniProt Q8IU85) | enzyme activity |  | 100 nM, human enzyme, with: 10 µM ATP | baseline: untreated | remaining activity | 21%
Cc1ccsc1C(=O)C1CCCN(Cc2cnc(N3CCCC3)s2)C1 (stereo not shown) | Trypanosoma cruzi | reporter mRNA translation, inhibitor, refers to: Renilla luciferase mRNA | cell-free extract | concentration not given, test 2 | baseline: positive over negative control | translation activity | 130% and 108%

Excerpt of the above:
SMILES | tested on | assay | test system | setting | scale | measurement | value
O=C1NC(=O)c2c1c1cc(F)c[n+]3c1c1c2c2cc(O)ccc2[n]1[Ru-4]312([N]=C=S)[S+]3CC[S+]1CC[S+]2CC3 (stereo not shown) | Calcium/calmodulin-dependent protein kinase type 1D (CAMK1D, Homo sapiens, UniProt Q8IU85) | enzyme activity |  | 100 nM, human enzyme, with: 10 µM ATP | baseline: untreated | remaining activity | 21%
